Assay results pooled from the literature.
± marks the error that the study gave. ≈ marks a conversion by molar mass, not a printed value.
Sequence of UniProt Q62968 (whole entry, looked up): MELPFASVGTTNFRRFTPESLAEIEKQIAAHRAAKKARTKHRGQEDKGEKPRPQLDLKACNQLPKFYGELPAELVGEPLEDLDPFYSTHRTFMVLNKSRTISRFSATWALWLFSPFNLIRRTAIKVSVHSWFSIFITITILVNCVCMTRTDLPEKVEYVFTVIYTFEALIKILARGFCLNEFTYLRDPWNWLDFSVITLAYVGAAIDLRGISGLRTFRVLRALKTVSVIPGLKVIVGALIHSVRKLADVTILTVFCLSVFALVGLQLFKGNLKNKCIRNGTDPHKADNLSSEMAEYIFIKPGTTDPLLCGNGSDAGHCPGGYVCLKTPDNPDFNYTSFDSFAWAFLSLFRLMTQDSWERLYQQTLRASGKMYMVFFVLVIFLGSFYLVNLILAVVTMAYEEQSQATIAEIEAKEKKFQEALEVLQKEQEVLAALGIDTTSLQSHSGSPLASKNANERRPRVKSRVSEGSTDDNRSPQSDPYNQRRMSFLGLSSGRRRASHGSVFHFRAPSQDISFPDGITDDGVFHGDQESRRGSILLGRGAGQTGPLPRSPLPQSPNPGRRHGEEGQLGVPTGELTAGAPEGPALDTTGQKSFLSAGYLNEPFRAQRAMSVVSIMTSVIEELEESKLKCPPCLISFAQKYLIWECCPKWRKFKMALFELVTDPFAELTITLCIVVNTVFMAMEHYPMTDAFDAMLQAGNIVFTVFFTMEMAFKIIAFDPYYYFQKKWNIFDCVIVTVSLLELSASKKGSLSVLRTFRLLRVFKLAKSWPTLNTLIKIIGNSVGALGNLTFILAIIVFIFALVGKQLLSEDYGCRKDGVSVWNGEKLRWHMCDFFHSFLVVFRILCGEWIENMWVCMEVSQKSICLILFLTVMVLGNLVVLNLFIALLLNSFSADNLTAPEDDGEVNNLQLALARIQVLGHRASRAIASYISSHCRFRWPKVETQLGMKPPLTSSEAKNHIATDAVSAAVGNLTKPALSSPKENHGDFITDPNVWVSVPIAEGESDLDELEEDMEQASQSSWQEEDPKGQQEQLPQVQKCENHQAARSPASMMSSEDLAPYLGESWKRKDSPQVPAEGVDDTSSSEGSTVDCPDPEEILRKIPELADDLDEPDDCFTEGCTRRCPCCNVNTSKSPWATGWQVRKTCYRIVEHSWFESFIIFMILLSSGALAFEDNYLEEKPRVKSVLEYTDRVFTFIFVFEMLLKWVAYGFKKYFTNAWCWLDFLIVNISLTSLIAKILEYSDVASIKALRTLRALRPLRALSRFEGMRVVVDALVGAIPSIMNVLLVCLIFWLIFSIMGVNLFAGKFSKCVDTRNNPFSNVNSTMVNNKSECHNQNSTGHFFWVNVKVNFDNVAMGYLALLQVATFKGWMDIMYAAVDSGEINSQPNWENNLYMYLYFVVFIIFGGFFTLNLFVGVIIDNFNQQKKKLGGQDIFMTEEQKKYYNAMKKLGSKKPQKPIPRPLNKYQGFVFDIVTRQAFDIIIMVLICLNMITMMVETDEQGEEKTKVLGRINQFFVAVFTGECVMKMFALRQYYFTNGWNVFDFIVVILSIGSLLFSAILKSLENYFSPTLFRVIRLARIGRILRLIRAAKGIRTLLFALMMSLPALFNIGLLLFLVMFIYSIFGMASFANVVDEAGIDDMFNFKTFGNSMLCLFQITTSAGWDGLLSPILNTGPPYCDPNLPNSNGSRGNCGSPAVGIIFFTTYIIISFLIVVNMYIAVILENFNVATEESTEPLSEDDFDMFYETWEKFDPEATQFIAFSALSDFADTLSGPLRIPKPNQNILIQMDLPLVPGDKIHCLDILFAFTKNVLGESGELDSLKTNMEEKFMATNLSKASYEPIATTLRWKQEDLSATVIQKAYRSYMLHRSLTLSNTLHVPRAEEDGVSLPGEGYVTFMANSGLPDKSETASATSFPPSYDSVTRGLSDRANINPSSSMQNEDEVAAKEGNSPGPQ
Sequence of UniProt P21729 (whole entry, looked up): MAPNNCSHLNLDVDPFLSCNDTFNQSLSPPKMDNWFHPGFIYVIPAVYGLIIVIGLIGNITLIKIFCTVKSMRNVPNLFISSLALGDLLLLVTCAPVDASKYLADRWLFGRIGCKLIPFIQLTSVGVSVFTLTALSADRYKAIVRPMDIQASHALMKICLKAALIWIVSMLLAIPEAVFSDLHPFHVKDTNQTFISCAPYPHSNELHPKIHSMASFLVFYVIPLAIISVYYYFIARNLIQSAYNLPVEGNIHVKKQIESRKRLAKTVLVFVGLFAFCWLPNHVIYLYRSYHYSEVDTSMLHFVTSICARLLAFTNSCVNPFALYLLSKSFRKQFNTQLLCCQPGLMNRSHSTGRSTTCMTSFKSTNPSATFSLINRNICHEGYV

SMILES	tested on	test	test system	setting	measurement	result
CSCC[C@H](NC(=O)[C@H](CC(C)C)NC(=O)[C@H](Cc1c[nH]cn1)NC(=O)CNC(=O)[C@@H](NC(=O)[C@H](C)NC(=O)[C@H](Cc1c[nH]c2ccccc12)NC(=O)[C@H](CCC(N)=O)NC(=O)CCCCNC(=O)CSCCSCCP(CO)CO)C(C)C)C(N)=O [technetium-99m labelled]			female CF-1 mouse, carcass	intravenous, 24 h	tissue uptake	1.5 %ID
N=C(N)NCCC[C@@H]1NC(=O)[C@H](CCCCNC(=O)CNC(=O)CNC(=O)CNC(=O)CC[C@H](NC(=O)CCOCCOCCOCCOCCNC(=O)CC[C@H](NC(=O)CN2CCN(CC(=O)O)CCN(CC(=O)O)CCN(CC(=O)O)CC2)C(=O)NCCOCCOCCOCCOCCC(=O)N[C@@H](CCC(=O)NCC(=O)NCC(=O)NCC(=O)NCCCC[C@@H]2NC(=O)[C@@H](Cc3ccccc3)NC(=O)[C@H](CC(=O)O)NC(=O)CNC(=O)[C@H](CCCNC(=N)N)NC2=O)C(=O)NCC(=O)NCC(=O)NCC(=O)NCCCC[C@@H]2NC(=O)[C@@H](Cc3ccccc3)NC(=O)[C@H](CC(=O)O)NC(=O)CNC(=O)[C@H](CCCNC(=N)N)NC2=O)C(=O)NCC(=O)NCC(=O)NCC(=O)NCCCC[C@@H]2NC(=O)[C@@H](Cc3ccccc3)NC(=O)[C@H](CC(=O)O)NC(=O)CNC(=O)[C@H](CCCNC(=N)N)NC2=O)NC(=O)[C@@H](Cc2ccccc2)NC(=O)[C@H](CC(=O)O)NC(=O)CNC1=O [indium-111 labelled]			female athymic nude mice, bone	intravenous, 3 µCi, 1 h, U-87 MG glioma xenograft	tissue uptake	1.76 ± 0.26 %ID/g
CCCC[C@H](NC(=O)CCCCCCCNC(=O)c1ccc(NN)nc1)C(=O)N[C@H]1CC(=O)NCCCC[C@@H](C(N)=O)NC(=O)[C@H](Cc2c[nH]c3ccccc23)NC(=O)[C@H](CCCNC(=N)N)NC(=O)[C@@H](Cc2ccccc2)NC(=O)[C@H](Cc2c[nH]cn2)NC1=O [technetium-99m labelled]			C57 mouse, B16/F1 melanoma, pancreas	2 h, with: L-lysine 12 mg co-injected	tissue uptake	0.06 ± 0.02 %ID/g
C[C@@H](O)[C@H](NC(=O)[C@@H]1CSSC[C@H](NC(=O)[C@@H](Cc2ccccc2)NC(=O)CN2CCCN3CCN(CCCN(CP(=O)(O)O)CC3)CC2)C(=O)N[C@@H](Cc2ccc(O)cc2)C(=O)N[C@H](Cc2c[nH]c3ccccc23)C(=O)N[C@@H](CCCCN)C(=O)N[C@@H]([C@@H](C)O)C(=O)N1)C(=O)O [copper-64 labelled]			male Lewis rat, pituitary	0.74 MBq, 4 h	tissue uptake	7.5 ± 1.1 %ID/g
CSCC[C@H](NC(=O)[C@H](CC(C)C)NC(=O)[C@H](Cc1c[nH]cn1)NC(=O)CNC(=O)[C@@H](NC(=O)[C@H](C)NC(=O)[C@H](Cc1c[nH]c2ccccc12)NC(=O)[C@H](CCC(N)=O)NC(=O)CCCCCNC(=O)CNC(=O)CNC(=O)CNC(=O)CSC(C)=O)C(C)C)C(N)=O [technetium-99m labelled]			nude mouse, PC-3 xenograft, blood	30 min	tissue uptake	0.72 ± 0.15 %ID/g
CCCC[C@H](NC(=O)CNC(=O)CNC(=O)c1ccc(NN)nc1)C(=O)N[C@H]1CC(=O)NCCCC[C@@H](C(N)=O)NC(=O)[C@H](Cc2c[nH]c3ccccc23)NC(=O)[C@H](CCCNC(=N)N)NC(=O)[C@@H](Cc2ccccc2)NC(=O)[C@H](Cc2c[nH]cn2)NC1=O [technetium-99m labelled]			C57 mouse, B16/F1 melanoma-bearing, spleen	intravenous, 0.5 h	tissue uptake	0.99 ± 0.1 %ID/g
CCCNC(=O)[C@H](CC(C)C)NC(=O)[C@H](Cc1c[nH]cn1)NC(=O)CNC(=O)[C@@H](NC(=O)[C@H](C)NC(=O)[C@H](Cc1c[nH]c2ccccc12)NC(=O)[C@H](CCC(N)=O)NC(=O)[C@@H](Cc1ccccc1)NC(=O)CCCCCNC(=O)CN1CCN(CC(=O)O)CCN(CC(=O)O)CCN(CC(=O)O)CC1)C(C)C [indium-111 labelled]	Gastrin-releasing peptide receptor (Mus musculus, UniProt P21729)	biodistribution	CF-1 mice, liver	intravenous, 1 h, with: bombesin 100 µg, blocking	tissue uptake	0.24 ± 0.01 %ID/g
CCN(Cc1ccccc1)C(=O)CCc1nc(CN2CCN(C(=O)Cc3ccc(OC)c(OC)c3)CC2)no1	Scn10a (Rattus norvegicus, UniProt Q62968)	sodium current, whole-cell patch clamp	rat DRG neurons	3 µM	inactivation V1/2	-67.2 ± 1.3 mV
CSCC[C@H](NC(=O)[C@H](CC(C)C)NC(=O)[C@H](Cc1c[nH]cn1)NC(=O)CNC(=O)[C@@H](NC(=O)[C@H](C)NC(=O)[C@H](Cc1c[nH]c2ccccc12)NC(=O)[C@H](CCC(N)=O)NC(=O)CCCCCCCNC(=O)CCC(=O)Nc1ccc(CNC23CNCCNCC(N)(CNCCNC2)CNCCNC3)cc1)C(C)C)C(N)=O [copper-64 labelled]			female SCID mice, PC-3 xenograft, bone	intravenous, 0.6 MBq, 4 h	tissue uptake	0.815 ± 0.035 %ID/g
N=C(N)NCCC[C@@H]1NC(=O)[C@H](CC(=O)NC23CNCCNCC(N)(CNCCNC2)CNCCNC3)NC(=O)[C@@H](Cc2ccccc2)NC(=O)[C@H](CC(=O)O)NC(=O)CNC1=O [copper-64 labelled]			Nu/Nu mouse, male, tumour-bearing, heart	intravenous, 10 µCi, 24 h	tissue uptake	0.26 ± 0.03 %ID/g
N=C(N)NCCC[C@@H]1NC(=O)[C@H](CCCCNC(=O)CCOCCOCCOCCOCCNC(=O)CN2CCN(CC(=O)O)CCN(CC(=O)O)CCN(CC(=O)O)CC2)NC(=O)[C@@H](Cc2ccccc2)NC(=O)[C@H](CC(=O)O)NC(=O)CNC1=O [indium-111 labelled]			female athymic nude mice, eyes	intravenous, 3 µCi, 1 h, U-87 MG glioma xenograft	tissue uptake	0.48 ± 0.2 %ID/g
COc1cc(C(=O)NCCOCCOCCOCCNC(=O)c2ccc([18F])nc2)ccc1NC(=O)C1NC(CC(C)(C)C)C(C#N)(c2ccc(Cl)cc2F)C1c1cccc(Cl)c1F (stereo not drawn)	SJSA-1 tumour model		host not given, heart	2 h, tumour-bearing	tracer uptake	0.48 %ID/g
CN[C@](C)(C[18F])C(=O)O	SK-OV-3 tumour model		host not given, heart	2 h, tumour-bearing	tracer uptake	2.4 %ID/g
N=C(N)NCCC[C@@H]1NC(=O)[C@H](CCCCNC(=O)CC[C@H](NC(=O)CCOCCOCCOCCOCCNC(=O)CN2CCN(CC(=O)O)CCN(CC(=O)O)CCN(CC(=O)O)CC2)C(=O)NCCCC[C@@H]2NC(=O)[C@@H](Cc3ccccc3)NC(=O)[C@H](CC(=O)O)NC(=O)CNC(=O)[C@H](CCCNC(=N)N)NC2=O)NC(=O)[C@@H](Cc2ccccc2)NC(=O)[C@H](CC(=O)O)NC(=O)CNC1=O [indium-111 labelled]			female athymic nude mice, blood	intravenous, 3 µCi, 0.5 h, U-87 MG glioma xenograft	tissue uptake	1.13 ± 0.13 %ID/g
CCCCCCCCC(=O)NCc1ccc(O)c(OC)c1	mouse mAb 1-D6	antibody binding, indirect competitive ELISA		with: coating antigen 6-OVA	IC50	0.153 µg/mL (≈ 0.52 µM)
